Published values collected from several papers.
Protocols differ between the studies behind these lines. Values after ≈ are worked out from the molar mass of the structure shown.
Organism: Klebsiella pneumoniae

| Structure (SMILES) | test | system | setting | scale | endpoint | result |
| --- | --- | --- | --- | --- | --- | --- |
| CC(=O)N[C@@H](C)C(=O)N[C@@H](CCCCN)C(=O)N[C@@H](CC(C)C)C(=O)N[C@@H](CC(C)C)C(=O)N[C@@H](CCCCN)C(=O)N[C@@H](CC(C)C)C(=O)N[C@@H](CC(C)C)C(=O)N[C@@H](CCCCN)C(=O)N[C@@H](CCCCN)C(=O)N1CCC[C@H]1C(=O)N[C@@H](CC(C)C)C(=O)N[C@@H](CCCCN)C(=O)N[C@@H](CC(C)C)C(=O)N[C@@H](CC(C)C)C(=O)N[C@@H](CCCCN)C(N)=O | broth microdilution | ATCC 700603 | 18 h, 37 °C, compound alone |  | MIC | > 80 µM |
| COc1cc2ccc3oc([N+](=O)[O-])cc3c2cc1OC | REMA |  |  |  | MIC90 | > 32 µg/mL |
| C[C@@H](O)[C@H]1C(=O)N2C(C(=O)O)=C(S[C@@H]3CN[C@H](C(=O)Nc4cccc(C(=O)O)c4)C3)[C@H](C)[C@H]12 | checkerboard | carbapenem-resistant | concentration not given, added: anionic gold nanoparticle 8 µg/mL | baseline: MIC alone over combination | MIC fold reduction | 2 fold |
| CO[C@@]1(NC(=O)Cc2cccs2)C(=O)N2C(C(=O)O)=C(COC(N)=O)CS[C@@H]21 | broth microdilution | ATCC 43816 acrAB overexpressor |  |  | MIC | 4 µg/mL |
| C[C@H]1[C@H](NC(=O)/C(=N\OC(C)(C)C(=O)O)c2csc(N)n2)C(=O)N1S(=O)(=O)O |  | ATCC BAA-2146, ESBL and NDM-1 producing, ICR mice, systemic lethal infection | 100 mg/kg |  | survival rate | 25% |
| O=[N+]([O-])c1cc2c(ccc3cc(Br)ccc32)o1 | REMA |  |  |  | MIC90 | > 32 µg/mL |
| C[C@@H](O)[C@H]1C(=O)N2C(C(=O)O)=C([C@H]3CCCO3)S[C@H]12 | checkerboard | carbapenem-resistant | concentration not given, added: anionic gold nanoparticle 8 µg/mL | baseline: MIC alone over combination | MIC fold reduction | > 2 fold |
| COc1ccc2ccc3oc([N+](=O)[O-])cc3c2c1Br | REMA |  |  |  | MIC90 | 0.016 µg/mL (≈ 0.0497 µM) |
| C[C@@H](O)[C@H]1C(=O)N2C(C(=O)O)=C(SCCN=CN)C[C@H]12 | checkerboard | carbapenem-resistant | concentration not given, added: anionic gold nanoparticle 8 µg/mL | baseline: MIC alone over combination | MIC fold reduction | 16 fold |
| NC(=O)[C@@H]1CC[C@@H]2CN1C(=O)N2OS(=O)(=O)O |  | ATCC BAA-2146 NDM-1 ESBL | compound alone |  | MIC | 8 µg/mL |
| CC[C@H](C)[C@H](NC(=O)[C@H](CC(C)C)NC(=O)[C@H](CCCNC(=N)N)NC(=O)[C@H](CCCNC(=N)N)NC(=O)[C@H](CCCNC(=N)N)NC(=O)[C@H](CCCNC(=N)N)NC(=O)[C@H](CC(C)C)NC(=O)[C@@H](NC(=O)[C@@H](NC(=O)[C@@H](NC(=O)[C@H](CC(C)C)NC(=O)[C@H](CCCNC(=N)N)NC(=O)[C@H](CO)NC(=O)[C@@H](N)CO)C(C)C)[C@@H](C)CC)[C@@H](C)CC)C(=O)N[C@@H](CO)C(=O)N[C@@H](CCCNC(=N)N)C(=O)N[C@@H](CCCNC(=N)N)C(=O)N[C@@H](CCCNC(=N)N)C(=O)N[C@@H](CCCNC(=N)N)C(N)=O |  |  |  |  | MIC range | 4 to 8 µM (≈ 9.85 to 19.7 µg/mL) |
| CC[C@H](C)[C@H](NC(=O)[C@H](Cc1ccccc1)NC(=O)[C@@H](NC(=O)[C@H](Cc1c[nH]c2ccccc12)NC(=O)[C@@H]1CCCN1C(=O)[C@@H](NC(=O)[C@H](C)N)[C@@H](C)CC)[C@@H](C)CC)C(=O)N[C@@H](Cc1ccccc1)C(=O)N[C@@H](CCCNC(=N)N)C(=O)N[C@@H](CC(C)C)C(=O)N[C@@H](CC(C)C)C(=O)N[C@@H](CCCNC(=N)N)C(=O)N[C@@H](CCCCN)C(=O)NCC(N)=O |  | ATCC 700603 | 18 h, 37 °C |  | MBC | 15 µM (≈ 25.9 µg/mL) |
| C[C@@H](O)[C@H]1C(=O)N2C(C(=O)O)=C(S[C@@H]3CN[C@H](C(=O)N(C)C)C3)[C@H](C)[C@H]12 |  | NDM-producing, neutropenic BALB/c mouse, thigh infection, thigh | dose not given, 8 h |  | bacterial burden, best | 8.3 log10 CFU/thigh |
| Cn1c(=O)ccc2ccc(F)c(CCNC[C@H]3CN(c4cnc5c(n4)NC(=O)CO5)C(=O)O3)c21 |  |  |  |  | MIC90 | 2 µg/mL (≈ 4.27 µM) |
| CC[C@H](C)[C@H](NC(=O)[C@H](Cc1c[nH]c2ccccc12)NC(=O)[C@@H](NC(=O)[C@H](Cc1c[nH]c2ccccc12)NC(=O)[C@@H]1CCCN1C(=O)[C@@H](NC(=O)[C@H](C)N)[C@@H](C)CC)[C@@H](C)CC)C(=O)N[C@@H](Cc1c[nH]c2ccccc12)C(=O)N[C@@H](CCCNC(=N)N)C(=O)N[C@@H](CC(C)C)C(=O)N[C@@H](CC(C)C)C(=O)N[C@@H](CCCNC(=N)N)C(=O)N[C@@H](CCCCN)C(=O)NCC(N)=O |  | ATCC 700603 | 18 h, 37 °C |  | MBC | > 15 µM |
| CCCCc1c([N+](=O)[O-])oc2ccc3ccccc3c12 | REMA |  |  |  | MIC90 | 1.25 µg/mL (≈ 4.64 µM) |
| NCC[C@H](O)C(=O)N[C@@H]1C[C@H](N)[C@@H](O[C@H]2O[C@H](CN)[C@@H](O)[C@H](O)[C@H]2O)[C@H](O)[C@H]1O[C@H]1O[C@H](CO)[C@@H](O)[C@H](N)[C@H]1O | growth inhibition, checkerboard |  | compound alone |  | IC50 | 31.2 µg/mL |
| CCc1c([N+](=O)[O-])oc2ccc3ccccc3c12 | REMA |  |  |  | MIC90 | 0.5 µg/mL (≈ 2.07 µM) |
| CC[C@H](C)[C@H](NC(=O)[C@H](Cc1ccccc1)NC(=O)[C@@H](NC(=O)[C@H](Cc1ccccc1)NC(=O)[C@@H]1CCCN1C(=O)[C@@H](NC(=O)[C@H](C)N)[C@@H](C)CC)[C@@H](C)CC)C(=O)N[C@@H](Cc1c[nH]c2ccccc12)C(=O)N[C@@H](CCCNC(=N)N)C(=O)N[C@@H](CC(C)C)C(=O)N[C@@H](CC(C)C)C(=O)N[C@@H](CCCNC(=N)N)C(=O)N[C@@H](CCCCN)C(=O)NCC(N)=O |  | ATCC 700603 | 18 h, 37 °C |  | MBC | 15 µM (≈ 25.9 µg/mL) |
| N#Cc1ccc2c(ccc3oc([N+](=O)[O-])cc32)c1 | REMA |  |  |  | MIC90 | 0.25 µg/mL (≈ 1.05 µM) |
| CC[C@H](C)CCCCC(=O)N[C@@H](CCN)C(=O)N[C@H](C(=O)N[C@@H](CCN)C(=O)N[C@H]1CCNC(=O)[C@H]([C@@H](C)O)NC(=O)[C@H](CCN)NC(=O)[C@H](CCN)NC(=O)[C@H](CC(C)C)NC(=O)[C@@H](CC(C)C)NC(=O)[C@H](CCN)NC1=O)[C@@H](C)O | EtBr efflux | ATCC 43816 AcrAB expressing | concentration not given, added: glucose, CCCP de-energised | baseline: untreated | EtBr fluorescence increase | > 2.5 fold |
| O=[N+]([O-])c1cc2c(ccc3c4cc([N+](=O)[O-])oc4ccc23)o1 | REMA |  |  |  | MIC90 | 8 µg/mL (≈ 26.8 µM) |
| O=C/C=C/c1ccccc1 |  | MTCC 109 | 1000 µg/mL, 18 h |  | zone of inhibition | 7 mm |
| Cc1c([N+](=O)[O-])oc2ccc3ccccc3c12 | REMA |  |  |  | MIC90 | 0.25 µg/mL (≈ 1.1 µM) |
| CC[C@H](C)[C@H](NC(=O)[C@H](C)NC(=O)[C@H](CCCCN)NC(=O)[C@H](CC(C)C)NC(=O)[C@H](C)NC(=O)[C@@H](NC(=O)[C@H](Cc1c[nH]cn1)NC(=O)[C@H](CC(C)C)NC(=O)[C@@H](NC(=O)[C@@H](NC(=O)[C@H](CCCCN)NC(=O)[C@H](C)NC(=O)[C@H](C)NC(=O)[C@H](CO)NC(=O)[C@H](CCCCN)NC(=O)[C@H](Cc1ccccc1)NC(=O)[C@@H](NC(=O)[C@H](CCCCN)NC(=O)[C@H](CC(C)C)NC(=O)[C@H](Cc1ccccc1)NC(=O)[C@H](CO)NC(=O)[C@H](CCCCN)NC(=O)[C@H](Cc1c[nH]c2ccccc12)NC(=O)[C@H](CCCCN)NC(C)=O)[C@@H](C)O)[C@@H](C)O)C(C)C)[C@@H](C)O)C(=O)N[C@@H](CO)C(=O)N[C@@H](CO)C(N)=O |  |  | 80 strains |  | MIC50 | 4 µg/mL (≈ 1.36 µM) |

A few entries again:
| Structure (SMILES) | test | system | setting | scale | endpoint | result |
| --- | --- | --- | --- | --- | --- | --- |
| N#Cc1ccc2c(ccc3oc([N+](=O)[O-])cc32)c1 | REMA |  |  |  | MIC90 | 0.25 µg/mL (≈ 1.05 µM) |
| CC[C@H](C)CCCCC(=O)N[C@@H](CCN)C(=O)N[C@H](C(=O)N[C@@H](CCN)C(=O)N[C@H]1CCNC(=O)[C@H]([C@@H](C)O)NC(=O)[C@H](CCN)NC(=O)[C@H](CCN)NC(=O)[C@H](CC(C)C)NC(=O)[C@@H](CC(C)C)NC(=O)[C@H](CCN)NC1=O)[C@@H](C)O | EtBr efflux | ATCC 43816 AcrAB expressing | concentration not given, added: glucose, CCCP de-energised | baseline: untreated | EtBr fluorescence increase | > 2.5 fold |
